Results from different studies.
Each line is one published result; not all experiments were run side by side. ± gives the spread as reported.

| SMILES | assay | system | conditions | how to read | measurement | result |
| --- | --- | --- | --- | --- | --- | --- |
| Cc1nc2cccc(OCC(C)(C)C(=O)NC(C)C)c2c(N)c1C(=O)O |  | Swiss albino CD-1 mouse | oral, 500 mg/kg, 48 h |  | mean body weight change | 1.1 ± 0.6 g |
| N#Cc1ccc2c(c1)[C@H]1CCCN(C(=O)c3ccc4[nH]cnc4c3)[C@H]1C2 |  | human females | 80 mg, day 7 |  | total testosterone level | 1.6 nmol/L |
| COc1ccc(-c2c(C)[nH]c3cc(OC)c(Cl)cc3c2=O)cc1 |  |  | pH 7.4 |  | kinetic solubility | < 2 µM |
| CCn1cc(C(=O)N2CCOCC2)c(=O)c2cc(NC3Cc4ccccc4C3)cnc21 |  | human, fasted | oral suspension, 5 mg single dose, arithmetic mean |  | half-life | 2.43 h |
| Cc1ccc(Sc2ccccc2N2CCNCC2)c(C)c1 | refers to: Diarrhea | healthy adult men | oral, 5 mg daily, 12 days |  | participants with TEAE | 0% |
| CC(=O)O[C@H]1C(=O)[C@@]2(C)[C@H]([C@H](OC(=O)c3ccccc3)[C@]3(O)C[C@H](OC(=O)[C@H](O)[C@@H](NC(=O)c4ccccc4)c4ccccc4)C(C)=C1C3(C)C)[C@]1(OC(C)=O)CO[C@@H]1C[C@@H]2O |  | human patients | intravenous, dose not given, cycle 2 day 1, mean | baseline: cycle 1 day 8 | clearance change | -13% |
| CCN(CC)Cc1ccc2cc(COC(=O)Nc3ccc(C(=O)NO)cc3)ccc2c1 |  | rat plasma | 800 ng/mL, three freeze-thaw cycles | baseline: nominal concentration | stability relative error | 90.3% |
| CCCC1CCC(c2ccc(-c3ccc(CC)cc3)cc2)CC1 (stereo not drawn) |  | rat, placenta | 5000 ng/mL in perfusate, high dose, mixture of 21 LCMs |  | median placental accumulation | 320 ng/g |
| CCN1CCN(Cc2ccc(NC(=O)c3ccc(C)c(NC(=O)c4cncc(-c5cccs5)c4)c3)cc2C(F)(F)F)CC1 |  | C57BL/6 mice, epithelial lining fluid | intraperitoneal, 20 mg/kg |  | extrapolated AUC share | 5.24% |
| N#C[C@@]1(c2ccc3c(N)ncnn23)O[C@H](CO)[C@@H](O)[C@H]1O |  | beagle dog male, plasma | oral capsule, 6.5 mg/kg, 6 h |  | plasma concentration | 3.43 µM |
| CC(=O)O[C@H]1C(=O)[C@@]2(C)[C@H]([C@H](OC(=O)c3ccccc3)[C@]3(O)C[C@H](OC(=O)[C@H](O)[C@@H](NC(=O)c4ccccc4)c4ccccc4)C(C)=C1C3(C)C)[C@]1(OC(C)=O)CO[C@@H]1C[C@@H]2O | refers to: Anaemia | patients with advanced solid tumours | intravenous, dose not given, all grades, possibly related to drug |  | adverse event incidence | 59% |
| CC(F)(F)c1nc2nc(CO)cc(Nc3ccc(S(F)(F)(F)(F)F)cc3)n2n1 | LC-MS/MS | malaria patients, plasma | oral, 600 mg of parent drug |  | AUC(0-t), metabolite | 148 µg·h/mL |
| COc1ncc(-c2nc3c(n2C(C)C)[C@H](c2ccc(Cl)cc2)N(c2cc(Cl)cn(C)c2=O)C3=O)c(OC)n1 | LC-MS/MS, noncompartmental | human, plasma | oral, 150 mg, C1D1, high-dose, geometric mean |  | Cmax | 1440 ng/mL |
| Cc1cc(C(=O)NC(C)(C)COc2cccc3c2C(N)=NS(=O)(=O)N3)cc(C)n1 |  | Sprague-Dawley rat, plasma | oral, 10 mg/kg, vehicle 1% methylcellulose | baseline: female over male | Cmax ratio | 1.32 |
| C=CCN1CC(=O)N2[C@@H](Cc3ccc(O)cc3F)C(=O)N(Cc3cccc(N4CC(N5CCN(CC)CC5)C4)n3)C[C@@H]2N1C(=O)NCc1ccccc1 |  | advanced solid tumour patients | oral, 10 mg twice daily, grade ≥3, dose-escalation |  | treatment-related decreased appetite | 0% |
| C[C@H]1CN(C(=O)CC#N)[C@]12CCN(c1ncnc3[nH]ccc13)C2 |  | healthy adults, plasma | oral, 3 mg single dose |  | half-life, median or range | 2.2 h |
| COc1cccc(OC)c1-c1cc(C(=O)NC2(C(=O)O)C3CC4CC(C3)CC2C4)nn1-c1ccc(C(=O)N(C)CCCN(C)CCCN(C)C(=O)CN2CCN(CC(=O)[O-])CCN(CC(=O)[O-])CCN(CC(=O)[O-])CC2)cc1C(C)C.[177Lu+3] (stereo not drawn) |  | mouse, HT-29 xenograft | 72 h post injection, biodistribution | baseline: tumour over lung uptake | tumour-to-lung ratio | 38.1 |
| C[C@@H]1COCCN1c1cc(C2([S@](C)(=N)=O)CC2)nc(-c2cc[nH]c3nccc2-3)n1 |  | Japanese advanced solid tumour patients | oral, 240 mg twice daily, CTCAE grade ≥3 |  | Fatigue incidence | 0% |
| CCC(C)n1ncn(-c2ccc(N3CCN(c4ccc(OCC5COC(Cn6cncn6)(c6ccc(Cl)cc6Cl)O5)cc4)CC3)cc2)c1=O (stereo not drawn) |  | human K3EDTA plasma | -80 °C |  | storage stability | 387 days |
| CNC(=O)c1ccc(-c2cnc3ncc(Cc4ccc5ncccc5c4)n3n2)cc1F | refers to: Vomiting | hepatocellular carcinoma patients | oral, 600 mg twice daily, expansion cohort, grade 3-4 |  | patients with adverse event | 9% |
| FC(F)(F)c1ccc(CNc2ccc(Cc3c[nH]c4ncc(Cl)cc34)cn2)cn1 | refers to: Pruritus | patients with advanced solid tumours, all cohorts | oral, 1000 mg/day, any grade |  | treatment-related adverse events | 17% |

Repeated from above:
| SMILES | assay | system | conditions | how to read | measurement | result |
| --- | --- | --- | --- | --- | --- | --- |
| CCN1CCN(Cc2ccc(NC(=O)c3ccc(C)c(NC(=O)c4cncc(-c5cccs5)c4)c3)cc2C(F)(F)F)CC1 |  | C57BL/6 mice, epithelial lining fluid | intraperitoneal, 20 mg/kg |  | extrapolated AUC share | 5.24% |
| N#C[C@@]1(c2ccc3c(N)ncnn23)O[C@H](CO)[C@@H](O)[C@H]1O |  | beagle dog male, plasma | oral capsule, 6.5 mg/kg, 6 h |  | plasma concentration | 3.43 µM |
